Experimental data collected from several papers.
Each numbered part is a random draw from the data of one study; scales do not carry over between parts. Positions count from the first letter of the parent shown.

Series 1 — read-out: peptide-MHC binding; molecule type: peptide; concentration: concentration not given
Target: HLA class I histocompatibility antigen, A alpha chain, allele A*80:01 (Homo sapiens, UniProt P04439)
Sequence	binding
SLFNWLWYE	inactive
PVTPVIPRV	inactive
TEDDWITYI	inactive
VYQRGTHPF	inactive
RVACRDVEV	inactive
YRRKLTNPA	inactive
VNRWLFRHL	inactive
ETFNTPAMY	inactive
QFLSFASLF	inactive
WQDGGWQSV	inactive
FLILPQAKK	inactive
SPVMGVIGF	inactive
KVGYFQHGA	inactive
FWAWSVLRV	inactive
VILYFMYRK	inactive
VSANVKGNW	inactive
RTRPRWIPA	inactive
TSCAPMMQK	inactive
LVTARQKLK	inactive
YMMDGNECP	inactive
MLRKKQITV	inactive
VVEKQSGLY	active
FLYDRLAST	inactive
NHYLCLNCL	inactive
QLAKRSEIL	inactive

Series 2 — target: CCNE1, cyclin fold, Cln2 fusion (human); technique: yeast growth competition, sequencing; medium: yeast; setting: strong parent motif; baseline: not given; direction: higher = stronger binding
Parent: viral docking peptide; KKAKRRLFTISDS; partner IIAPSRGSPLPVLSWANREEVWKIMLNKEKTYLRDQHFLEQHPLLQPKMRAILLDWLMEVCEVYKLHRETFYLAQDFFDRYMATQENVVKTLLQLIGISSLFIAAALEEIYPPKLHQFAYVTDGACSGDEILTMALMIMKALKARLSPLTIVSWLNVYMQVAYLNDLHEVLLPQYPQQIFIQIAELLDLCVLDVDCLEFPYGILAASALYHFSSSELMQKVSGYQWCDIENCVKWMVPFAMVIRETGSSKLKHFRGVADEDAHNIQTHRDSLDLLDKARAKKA
Substitution	normalised enrichment score
K4A	1.87
T9A	3.23
R5K	0.803
F8L	0.697
K2A	2.68
R5A	1.54
S13A	3.31
D12A	1.23

Series 3 — technique: RNA Bind-n-Seq; molecule type: RNA; medium: in vitro; concentration: 90 pmol; setting: 4-mer, random 30-nt RNA, single round; baseline: input library; direction: higher = stronger binding
Target: Eukaryotic initiation factor 4A-I (EIF4A1, Homo sapiens, UniProt P60842, residues 1-406, full length assumed)
UniProt P60842, sequence (whole entry, looked up): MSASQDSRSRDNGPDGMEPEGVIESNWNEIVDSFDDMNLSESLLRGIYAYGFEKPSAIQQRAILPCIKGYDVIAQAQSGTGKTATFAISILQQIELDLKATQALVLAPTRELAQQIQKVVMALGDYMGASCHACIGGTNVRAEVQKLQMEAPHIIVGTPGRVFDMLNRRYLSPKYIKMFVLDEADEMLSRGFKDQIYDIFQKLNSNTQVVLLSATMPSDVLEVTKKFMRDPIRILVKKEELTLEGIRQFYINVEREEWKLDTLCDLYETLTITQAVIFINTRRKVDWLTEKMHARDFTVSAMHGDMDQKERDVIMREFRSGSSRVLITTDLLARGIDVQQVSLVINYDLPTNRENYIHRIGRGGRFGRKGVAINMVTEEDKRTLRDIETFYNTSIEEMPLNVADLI
Added: 3 µM iPr-DMDA-PatA, 2 mM ADP, 2 mM phosphate
Strand	4-mer enrichment
CCCU	0.903 fold
UUGU	0.977 fold
GCAA	1.05 fold
GCAG	0.789 fold
GGCU	0.713 fold
UCUU	1.01 fold
ACAC	1.15 fold
UGGG	0.635 fold

Series 4 — target: UBE2D2 UBC core domain (UniProt P62837); technique: yeast two-hybrid; medium: yeast; setting: mostly zero background; baseline: not given; direction: higher = stronger interaction
UniProt P62837, sequence (whole entry, looked up): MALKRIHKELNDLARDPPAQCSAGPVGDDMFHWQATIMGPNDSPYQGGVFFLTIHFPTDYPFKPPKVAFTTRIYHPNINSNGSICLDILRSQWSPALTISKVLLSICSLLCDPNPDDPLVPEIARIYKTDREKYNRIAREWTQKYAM
B1: RNF38 RING domain (UniProt Q9H0F5); chain PNNHQSEQTLCVVCMCDFESRQLLRVLPCNHEFHAKCVDKWLKANRTCPICRADASEVHRDS
B2: TRIML1 RING domain (UniProt Q8N9V2); chain LMENLREELTCFICLDYFSSPVTTECGHSFCLVCLLRSWEEHNTPLSCPECWRTLEGPHFQS
B3: NEURL1 RING domain (UniProt O76050); chain VTPGLGQWSDECTICYEHAVDTVIYTCGHMCLCYACGLRLKKALHACCPICRRPIKDIIKT
B4: RNF208 RING domain (UniProt Q9H0X6); chain SSAAAGEPLECPTCGHSYNVTQRRPRVLSCLHSVCEQCLQILYESCPKYKFISCPTCRRETVLFTDYG
B5: TRIM24 RING domain (UniProt O15164); chain EAARLNLLDTCAVCHQNIQSRAPKLLPCLHSFCQRCLPAPQRYLMLPAPMLGSAETPPPVPAPGSPVSGSSPFATQVGVIRCPVCSQECAERHII
B6: TRIM43 RING domain (UniProt Q96BQ3); chain FSHAFQKELTCVICLNYLVDPVTICCGHSFCRPCLCLSWEEAQSPANCPACREPSPKMDFKT
B7: TRIM40 RING domain (UniProt Q6P9F5); chain LQKDNQEEGVCPICQESLKEAVSTNCGHLFCRVCLTQHVEKASASGVFCCPLCRKPCSEEVLG
B8: TRIM5 RING domain (UniProt Q9C035); chain ILVNVKEEVTCPICLELLTQPLSLDCGHSFCQACLTANHKKSMLDKGESSCPVCRISYQPENIRP
B9: TRIM4 RING domain (UniProt Q9C037); chain EAEDIQEELTCPICLDYFQDPVSIECGHNFCRGCLHRNWAPGGGPFPCPECRHPSAPAALRP
B10: RNF111 RING domain (UniProt Q6ZNA4); chain EGTEEDTEEKCTICLSILEEGEDVRRLPCMHLFHQVCVDQWLITNKKCPICRVDIEAQLPSE
B11: VPS41 RING domain (UniProt P49754); chain KGVLVDEENICESCLSPILPSDAAKPFSVVVFHCRHMFHKECLPMPSMNSAAQFCNICSAKNRGPGSAI
Sequence	lacZ reporter activity
FQGDVDEDLICPICSGVLEEPVQAPHCEHAFCNACITQWFSQQQTCPVDRSVVTVAHLRP (RNF41 RING domain (UniProt Q9H4P4))	0
B1 (RNF38 RING domain)	0
PAELEVQASECVVCLEREAQMIFLNCGHVCCCQQCCQPLRTCPLCRQDIAQRLRIY (LRSAM1 RING domain (UniProt Q6UWE0))	0
B2 (TRIML1 RING domain)	0
B3 (NEURL1 RING domain)	0
B4 (RNF208 RING domain)	0
B5 (TRIM24 RING domain)	0
ASLPTSEEDLCPICYAHPISAVFQPCGHKSCKACINQHLMNNKDCFFCKTTIVSVEDWE (RNF123 RING domain (UniProt Q5XPI4))	0
B6 (TRIM43 RING domain)	0
MPIRALCTICSDFFDHSRDVAAIHCGHTFHLQCLIQWFETAPSRTCPQCRIQVGKRTIIN (TRAIP RING domain (UniProt Q9BWF2))	0
GAAPGPEAAECLVCSELALLVLFSPCQHRTVCEECARRMKKCIRCQVVVSKKLRPD (MIB2 RING domain (UniProt Q96AX9))	0
B7 (TRIM40 RING domain)	0
B8 (TRIM5 RING domain)	0
B9 (TRIM4 RING domain)	0
B10 (RNF111 RING domain)	14700
B11 (VPS41 RING domain)	0

Some of these lines once more (series 1):
Sequence	binding
TSCAPMMQK	inactive
LVTARQKLK	inactive
YMMDGNECP	inactive
MLRKKQITV	inactive
VVEKQSGLY	active
FLYDRLAST	inactive
NHYLCLNCL	inactive
